Measured values of several laboratories.
Parts stem from different laboratories: compare values within a part only. Positions count from the first letter of the parent shown.

Set 1
Target: CCNE2, cyclin fold, Cln2 fusion (human)
Method: yeast growth competition, sequencing
Medium: yeast
Setting: weak parent motif
Reference: not given
Direction: higher = stronger binding
Parent: ORC1 docking peptide (human); PRARKRLELGNLG; partner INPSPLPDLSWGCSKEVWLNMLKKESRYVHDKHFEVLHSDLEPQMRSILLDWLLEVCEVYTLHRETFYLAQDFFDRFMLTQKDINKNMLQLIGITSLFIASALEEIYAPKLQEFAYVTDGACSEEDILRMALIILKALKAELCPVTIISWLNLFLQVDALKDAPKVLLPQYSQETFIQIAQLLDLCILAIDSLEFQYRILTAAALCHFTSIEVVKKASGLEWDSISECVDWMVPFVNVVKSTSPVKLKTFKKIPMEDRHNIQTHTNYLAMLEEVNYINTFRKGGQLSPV
Substitution | normalised enrichment score
K5N | 0.393
R4L | 0.441
L7M | 0.255
R2Q | 0.293
N11L | 1.05

Set 2
Target: Ras GTPase-activating protein-binding protein 1, C-terminal RGG region (G3BP1, Homo sapiens, UniProt Q13283)
Sequence of UniProt Q13283 (whole entry, looked up): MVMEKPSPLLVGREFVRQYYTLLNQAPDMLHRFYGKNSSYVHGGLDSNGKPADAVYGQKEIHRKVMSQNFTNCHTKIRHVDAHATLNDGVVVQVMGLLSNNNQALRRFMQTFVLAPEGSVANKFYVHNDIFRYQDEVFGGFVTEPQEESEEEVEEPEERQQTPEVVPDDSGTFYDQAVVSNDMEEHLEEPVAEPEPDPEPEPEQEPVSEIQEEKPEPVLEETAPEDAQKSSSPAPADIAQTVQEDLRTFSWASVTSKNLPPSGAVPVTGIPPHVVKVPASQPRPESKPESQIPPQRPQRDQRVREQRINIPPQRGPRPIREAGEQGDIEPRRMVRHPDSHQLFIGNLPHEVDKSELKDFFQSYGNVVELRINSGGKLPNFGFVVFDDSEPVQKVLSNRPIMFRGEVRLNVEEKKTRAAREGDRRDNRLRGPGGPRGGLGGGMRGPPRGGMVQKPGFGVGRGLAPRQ
Method: RNA Bind-n-Seq
Molecule type: RNA
Medium: in vitro
Tested at: 1 µM
Setting: whole 134-nt RNA, ends assumed
Added: 150 mM KCl
Reference: input library
Direction: higher = stronger binding
Constant ends, left off below: GGGAGUUCUACAGUCCGACGAUC … UGGAAUUCUCGGGUGUCAAGG
Strand | log2 enrichment
GCAGGAAGUAAAAACAAAUGGAAAUGCUUCGGAUAGUGGCAGGGGUGGGGGUUGCUAAGGAAAGGAUGGGAUGGGAGUGGGUAAAGAGUU | 1.75
CAAGUCCUGUGCUACACAUCGUAUGUACCGAAUCGGGGUUUGGGGUUUGGUUUGGAAAGUAUUAUGUUACGCCGUUCGGAUCUGCACUUC | -0.772
AAGUCCUGUGCUACACAUCGUAUGUACCGAAUCGGUGGUUUUUUUGGAAAAAAAGGAAAGUAUUAUGUUACGCCGUUCGGAUCUGCACUU | -2.06
AAGUCCUGUGCUACACAUCGUAUGUACCGAAUCGGCCCCGGGCCCCGGCCCCGGGGAAAGUAUUAUGUUACGCCGUUCGGAUCUGCACUU | -2.17
AGUCCUGUGCUACACAUCGUAUGUACCGAAUCGGGGUUUUUGGGGUGGGGAAAGGGGAAAGUAUUAUGUUACGCCGUUCGGAUCUGCACU | 2.25
UCAAGUCCUGUGCUACACAUCGUAUGUACCGAAUCGGGAAAGGAAAGGGGAAAGGAAAGUAUUAUGUUACGCCGUUCGGAUCUGCACUUC | -1.54

Other studies, line by line
ABI1: ABI1, truncated, D143A, DHFR fusion (Arabidopsis thaliana)
P1: PYL1, truncated, DHFR fusion (Arabidopsis thaliana); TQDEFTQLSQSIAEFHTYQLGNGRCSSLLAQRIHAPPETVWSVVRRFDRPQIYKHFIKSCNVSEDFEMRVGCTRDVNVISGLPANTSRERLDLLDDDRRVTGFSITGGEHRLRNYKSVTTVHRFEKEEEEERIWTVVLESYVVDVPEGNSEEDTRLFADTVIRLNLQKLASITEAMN; partner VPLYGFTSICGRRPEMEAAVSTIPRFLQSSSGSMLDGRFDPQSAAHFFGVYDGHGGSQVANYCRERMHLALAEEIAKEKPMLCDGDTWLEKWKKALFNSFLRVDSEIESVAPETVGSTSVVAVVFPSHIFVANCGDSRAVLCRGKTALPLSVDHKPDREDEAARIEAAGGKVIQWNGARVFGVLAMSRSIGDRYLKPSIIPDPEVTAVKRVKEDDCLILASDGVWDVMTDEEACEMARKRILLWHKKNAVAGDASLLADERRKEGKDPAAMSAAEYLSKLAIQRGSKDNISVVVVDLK
Substance | target | assay | system | setting | how to read | endpoint | result
P1 K54I | ABI1 | DHFR PCA, deep sequencing | yeast | methotrexate growth selection, single substitutions, added: (+)-ABA 58 µM | reference: wild-type fitted maximum, higher = stronger binding | relative binding score | 9.18%
PhoQ, residues 284 288 289 292 302 303 AGGCYF | PhoP, residues 12 14 15 18 19 NQAHL (Escherichia coli, UniProt P23836) | Sort-seq, item: YFP reporter | E. coli | PhoQ-PhoP variant library, added: 10 µM Mg2+ | reference: high Mg2+ state, higher = stronger signaling | fold induction | 1.19
P1 I105E | ABI1 | DHFR PCA, deep sequencing | yeast | methotrexate growth selection, single substitutions, added: (+)-ABA 58 µM | reference: wild-type fitted maximum, higher = stronger binding | relative binding score | -2.31%
P1 V78I | ABI1 | DHFR PCA, deep sequencing | yeast | methotrexate growth selection, single substitutions, added: (+)-ABA 1.4 µM | reference: wild-type fitted maximum, higher = stronger binding | relative binding score | 69.5%
P1 F124P | ABI1 | DHFR PCA, deep sequencing | yeast | methotrexate growth selection, single substitutions, added: (+)-ABA 0.39 µM | reference: wild-type fitted maximum, higher = stronger binding | relative binding score | -8.09%

Excerpt of the above (set 1):
Substitution | normalised enrichment score
N11L | 1.05
